Results gathered from unrelated publications.
Protocols differ between the studies behind these lines. ± marks the error that the study gave.
preS1 2-48: preS1 fragment, N-myristoyl, TAMRA label (hepatitis B virus)

Substance = CC(C)C[C@@H]1NC(=O)[C@H](CCCNC(=N)N)NC(=O)[C@@H]2CCCN2C(=O)[C@@H]2CSSC[C@H](NC(=O)CNC(=O)[C@@H]3CCCN3C(=O)[C@H](CCCCN)NC(=O)[C@H](CC(=O)O)NC(=O)[C@@H](NC(=O)CN)C(C)C)C(=O)N[C@@H](CCCNC(=N)N)C(=O)N[C@@H](Cc3ccc(O)cc3)C(=O)N[C@@H](CC(C)C)C(=O)N[C@@H](Cc3ccccc3)C(=O)NCC(=O)NCC(=O)N[C@H]3CSSC[C@H](NC(=O)CNC1=O)C(=O)N[C@@H](CCCCN)C(=O)NCC(=O)N[C@@H](CCCCN)C(=O)NCC(=O)N[C@@H](Cc1c[nH]cn1)C(=O)N[C@@H](CC(=O)O)C(=O)N[C@@H](Cc1ccc(O)cc1)C(=O)N[C@H](C(=O)N[C@@H](C)C(=O)N[C@@H](Cc1c[nH]c4ccccc14)C(=O)N[C@@H](CC(=O)O)C(=O)NCC(=O)N[C@H](C(=O)N[C@@H](Cc1ccccc1)C(=O)N[C@@H](CO)C(=O)N[C@@H](CC(=O)O)C(=O)O)[C@@H](C)O)CSSC[C@H](NC(=O)[C@H](CC(=O)O)NC(=O)[C@H](CC(=O)O)NC(=O)[C@H](CC(=O)O)NC(=O)[C@H](CO)NC(=O)[C@H](CCCCN)NC3=O)C(=O)N2; assay = measured: compound-sensitive delayed rectifier K current; test system = mouse small DRG neurons; setting = 1 µM; endpoint = activation V0.5; result = 5.8 ± 2.2 mV
Substance = CC[C@H](C)[C@@H]([C@@H](CC(=O)N1CCC[C@H]1[C@H](OC)[C@@H](C)C(=O)N[C@H](C)[C@@H](O)c1ccccc1)OC)N(C)C(=O)[C@@H](NC(=O)[C@H](C(C)C)N(C)C(=O)OCc1ccc(NC(=O)[C@H](CCCNC(N)=O)NC(=O)[C@@H](NC(=O)CCCC(=O)NCCC(=O)N(C)CC(=O)N(C)CC(=O)N(C)CC(=O)N(C)CC(=O)N(C)CC(=O)N(C)CC(=O)N(C)CC(=O)N(C)CC(=O)N(C)CC(=O)N(C)CC(=O)N[C@H]2CSCCC(=O)N3CN4CN(C3)C(=O)CCSC[C@H](NC(=O)[C@@H](CC(=O)O)NC(=O)[C@H](Cc3cccc5ccccc35)NC(=O)[C@@H]3CCCN3C2=O)C(=O)N[C@@H](CCSC)C(=O)N[C@@H](CCCCNC(=N)N)C(=O)N[C@@H](CC(=O)O)C(=O)N[C@@H](Cc2c[nH]c3ccccc23)C(=O)N[C@@H](CO)C(=O)N[C@@H]([C@@H](C)O)C(=O)N2CCC[C@H]2C(=O)N2C[C@H](O)C[C@H]2C(=O)N[C@@H](Cc2c[nH]c3ccccc23)C(=O)N[C@H](C(N)=O)CSCCC4=O)C(C)C)cc1)C(C)C; assay = plasma protein binding; test system = human plasma; setting = 2 µM, 2.5 h, pH 7.4; endpoint = fu; result = 0.207
Substance = CCC1C=C(C(=O)NC2(C(=O)O)CC2CC)C2CCC(=O)C2C1 (centres unmarked); tested on = COI1/TIFY11B (Arabidopsis thaliana, UniProt O04197+Q9C9E3); assay = binding, radioligand saturation binding; test system = COI1-ASK1 complex; setting = Arabidopsis thaliana proteins, added: full-length JAZ6; endpoint = Kd; result = 68 nM
Substance = NTCP L161I (Macaca fascicularis); tested on = preS1 2-48; assay = preS1-TAMRA fluorescence; test system = HepG2; setting = read off a plot; how to read = baseline: human NTCP WT, higher = more preS1 binding; endpoint = binding relative to WT; result = 0.1 fold
Substance = CC[C@H](C)[C@@H]1NC(=O)[C@H](CCCNC(=N)N)NC(=O)[C@H](CO)NC(=O)[C@H](CCC(=O)O)NC(=O)[C@H](CC(=O)O)NC(=O)CNC(=O)CNC(=O)[C@H]([C@@H](C)O)NC(=O)[C@H](Cc2ccccc2)NC(=O)[C@H](CO)NC(=O)[C@H]([C@@H](C)O)NC(=O)[C@H](C)NC(=O)[C@@H]2CSSC[C@@H](C(=O)N[C@@H](Cc3ccc(O)cc3)C(=O)N[C@@H](Cc3ccccc3)C(=O)N[C@H](C(=O)N[C@H](C(=O)NCC(=O)O)[C@@H](C)O)[C@@H](C)O)NC(=O)[C@H]([C@@H](C)O)NC(=O)[C@H](CSSC[C@H](NC(=O)[C@H](CCC(=O)O)NC(=O)[C@H](CO)NC(=O)[C@H](CCCCN)NC(=O)[C@H](Cc3ccc(O)cc3)NC(=O)[C@@H]3CCCN3C(=O)[C@H](Cc3ccccc3)NC(=O)[C@H](CCCCN)NC(=O)[C@H](CCCNC(=N)N)NC(=O)[C@H](CCCCN)NC(=O)[C@H](CCCCN)NC(=O)[C@H](Cc3ccc(O)cc3)NC(=O)[C@@H]3CCCN3C(=O)[C@@H](NC(=O)[C@H](CC(=O)O)NC(=O)[C@H](CCCCN)NC(=O)[C@H](CCCCN)NC(=O)[C@@H](NC(=O)[C@@H](NC(=O)[C@@H](N)CCC(=O)O)C(C)C)[C@@H](C)CC)[C@@H](C)O)C(=O)N[C@@H](CC(C)C)C(=O)N[C@@H](CCCCN)C(=O)N[C@@H](C)C(=O)N2)NC(=O)[C@H](CCCCN)NC(=O)[C@H](Cc2ccccc2)NC(=O)[C@H](Cc2ccccc2)NC(=O)CNC(=O)[C@@H]2CCCN2C(=O)[C@H](CCCCN)NC(=O)CNC(=O)[C@H](CCC(=O)O)NC(=O)[C@H](CCC(N)=O)NC1=O; tested on = Potassium voltage-gated channel subfamily KQT member 4 (KCNQ4, Homo sapiens, UniProt P56696); assay = ion current, whole-cell patch clamp; test system = HEK293T cells; endpoint = Hill slope; result = 1.18 ± 0.03
Substance = NTCP N86K/R158G (Macaca fascicularis); tested on = preS1 2-48; assay = preS1-TAMRA fluorescence; test system = HepG2; setting = read off a plot; how to read = baseline: human NTCP WT, higher = more preS1 binding; endpoint = binding relative to WT; result = 0.63 fold
Substance = CC=C1CNC2CC3(C(=O)N(OC)c4cc(OC)ccc43)C3CC1C2CO3 (centres unmarked); test system = Kunming mice both sexes; setting = intraperitoneal, 7 days; endpoint = LD50; result = 0.15 mg/kg
Substance = CCOP(=O)(OCC)Oc1cc(C)nc(C(C)C)n1; tested on = Albumin (Alb, Rattus norvegicus, UniProt P02770); assay = cell-free assay; endpoint = IC50; result = ~2000 nM
